Experimental data of several laboratories.
Numbered parts are unrelated; each lists some results of a single study. Positions count from the first letter of the parent shown.

Block 1
Target: Sal-like protein 4, full length isoform A (SALL4, Homo sapiens, UniProt Q9UJQ4, residues 1-1053)
Chain of UniProt Q9UJQ4 (whole entry, looked up): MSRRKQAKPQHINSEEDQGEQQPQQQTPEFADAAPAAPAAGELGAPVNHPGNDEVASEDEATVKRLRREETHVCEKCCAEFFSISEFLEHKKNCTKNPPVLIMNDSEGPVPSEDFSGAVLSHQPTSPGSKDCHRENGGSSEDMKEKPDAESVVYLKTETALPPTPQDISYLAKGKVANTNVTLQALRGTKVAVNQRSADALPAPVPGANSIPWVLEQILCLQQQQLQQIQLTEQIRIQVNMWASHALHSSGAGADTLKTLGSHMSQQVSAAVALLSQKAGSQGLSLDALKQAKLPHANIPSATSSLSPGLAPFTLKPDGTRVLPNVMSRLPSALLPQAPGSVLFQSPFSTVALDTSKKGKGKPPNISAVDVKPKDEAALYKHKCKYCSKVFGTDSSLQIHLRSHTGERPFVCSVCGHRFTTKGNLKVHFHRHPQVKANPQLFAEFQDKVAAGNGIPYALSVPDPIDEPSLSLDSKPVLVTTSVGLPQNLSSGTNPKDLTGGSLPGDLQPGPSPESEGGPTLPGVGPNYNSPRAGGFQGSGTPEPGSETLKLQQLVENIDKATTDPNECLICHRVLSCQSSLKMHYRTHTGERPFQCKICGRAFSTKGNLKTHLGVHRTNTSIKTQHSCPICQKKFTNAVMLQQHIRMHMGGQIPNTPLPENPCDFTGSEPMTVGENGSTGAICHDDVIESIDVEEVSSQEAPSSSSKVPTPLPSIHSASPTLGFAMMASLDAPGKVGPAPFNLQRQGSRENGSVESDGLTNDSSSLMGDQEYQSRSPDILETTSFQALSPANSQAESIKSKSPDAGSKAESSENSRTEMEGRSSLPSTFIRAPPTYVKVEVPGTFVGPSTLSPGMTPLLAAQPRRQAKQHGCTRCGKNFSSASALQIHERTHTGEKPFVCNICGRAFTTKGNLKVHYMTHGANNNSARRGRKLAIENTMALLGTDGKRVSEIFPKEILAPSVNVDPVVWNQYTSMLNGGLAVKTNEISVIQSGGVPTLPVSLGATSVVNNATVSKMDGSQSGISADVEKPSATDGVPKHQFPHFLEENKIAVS
Technique: universal PBM
Molecule type: double-stranded DNA, one strand shown
Sample: in vitro
Tested at: 600 nM
Setting: 8-mer, flanks averaged, mean of replicates
Direction: higher = stronger binding
Endpoint: E-score
CAGCTATA: 0.0786
AGACAGAT: 0.159
CTAATCGC: -0.06
CCGCTACC: -0.215
CAGCATCC: -0.248
AAGTGCCA: -0.0402
CATAGTAC: -0.0175
CGGATCTA: 0.00188

Block 2
Target: ABI1, truncated, D143A, DHFR fusion (Arabidopsis thaliana, UniProt P49597)
Technique: DHFR PCA, dose-response
Sample: yeast
Setting: Hill fit, mean, not affinity
Added: (+)-ABA, dose series
Direction: lower = more sensitive
Endpoint: ABA EC50
Parent: PYL1, truncated, DHFR fusion (Arabidopsis thaliana, UniProt Q8VZS8); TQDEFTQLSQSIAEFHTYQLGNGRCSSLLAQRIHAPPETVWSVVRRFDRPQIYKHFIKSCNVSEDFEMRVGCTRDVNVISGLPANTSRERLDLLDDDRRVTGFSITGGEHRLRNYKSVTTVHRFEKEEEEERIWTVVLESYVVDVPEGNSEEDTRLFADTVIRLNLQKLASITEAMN
R32M: 2.6 µM
L166F: 88.7 µM
A175Q: 1.59 µM
I57Q: 180 µM
V118S: 81.1 µM
R88G: 120 µM
L156S: 2.38 µM
R45T: 195 µM

Further values, each from its own experiment
SYNCRIP (Homo sapiens, UniProt O60506) — cross-linked residues (HNRNPA2B1 (Homo sapiens, UniProt P22626); cross-linking MS; cell fractions; added: DHSO): E355 to E34
CCOC(=O)c1c(=O)n(-c2ccccc2)nc2cc(C(C)=O)ccc12 — remaining compound (mouse, microsomes or S9; 2 µM, 0.5 h): 63.8%
PELP1 (Homo sapiens, UniProt Q8IZL8) — cross-linked residues (WDR18 (Homo sapiens, UniProt Q9BV38); cross-linking MS; cell fractions; added: DSSO): K103 to K389
EXOC3 (Homo sapiens, UniProt O60645) — cross-linked residues (EXOC4 (Homo sapiens, UniProt Q96A65); cross-linking MS; cell fractions; added: DSSO): K40 to K122
WDR46 (Homo sapiens, UniProt O15213) — interaction screen (UTP14A (Homo sapiens, UniProt Q9BVJ6); cross-linking MS; hits only): cross-linked
